Published values pooled from the literature.
Lines come from different studies, so protocols differ. “And” joins repeats or separate records; there may be more than shown. ± marks the error that the study gave.

SMILES	assay	test system	setting	scale	endpoint	value
CCCC[C@H](NC(=O)CNC(=O)CNC(=O)c1ccc(NN)nc1)C(=O)N[C@H]1CC(=O)NCCCC[C@@H](C(N)=O)NC(=O)[C@H](Cc2c[nH]c3ccccc23)NC(=O)[C@H](CCCNC(=N)N)NC(=O)[C@@H](Cc2ccccc2)NC(=O)[C@H](Cc2c[nH]cn2)NC1=O [technetium-99m labelled]		C57 mouse, B16/F1 melanoma-bearing	intravenous, 2 h	reference: tumour over kidney	tissue uptake ratio	1.88
N=C(N)NCCC[C@@H]1NC(=O)[C@H](CCCCNC(=O)CCOCCOCCOCCOCCNC(=O)CC[C@H](NC(=O)CCOCCOCCOCCOCCNC(=O)CC[C@H](NC(=O)CN2CCN(CC(=O)O)CCN(CC(=O)O)CCN(CC(=O)O)CC2)C(=O)NCCOCCOCCOCCOCCC(=O)N[C@@H](CCC(=O)NCCOCCOCCOCCOCCC(=O)NCCCC[C@@H]2NC(=O)[C@@H](Cc3ccccc3)NC(=O)[C@H](CC(=O)O)NC(=O)CNC(=O)[C@H](CCCNC(=N)N)NC2=O)C(=O)NCCOCCOCCOCCOCCC(=O)NCCCC[C@@H]2NC(=O)[C@@H](Cc3ccccc3)NC(=O)[C@H](CC(=O)O)NC(=O)CNC(=O)[C@H](CCCNC(=N)N)NC2=O)C(=O)NCCOCCOCCOCCOCCC(=O)NCCCC[C@@H]2NC(=O)[C@@H](Cc3ccccc3)NC(=O)[C@H](CC(=O)O)NC(=O)CNC(=O)[C@H](CCCNC(=N)N)NC2=O)NC(=O)[C@@H](Cc2ccccc2)NC(=O)[C@H](CC(=O)O)NC(=O)CNC1=O [indium-111 labelled]		athymic nude mice, female, U-87 MG glioma xenograft, tumour and liver	intravenous, 24 h	reference: tumour over liver	tumour to tissue ratio	3.24 ± 1.02
CCCC[C@H](NC(=O)CCCCCCCNC(=O)c1ccc(NN)nc1)C(=O)N[C@H]1CC(=O)NCCCC[C@@H](C(N)=O)NC(=O)[C@H](Cc2c[nH]c3ccccc23)NC(=O)[C@H](CCCNC(=N)N)NC(=O)[C@@H](Cc2ccccc2)NC(=O)[C@H](Cc2c[nH]cn2)NC1=O [technetium-99m labelled]		C57 mouse, B16/F1 melanoma, stomach	intravenous, 0.5 h		uptake	2.52 ± 0.22 %ID/g
N=C(N)NCCC[C@@H]1NC(=O)[C@H](CCCCNC(=O)CC[C@H](NC(=O)CCOCCOCCOCCOCCNC(=O)CC[C@H](NC(=O)CN2CCN(CC(=O)O)CCN(CC(=O)O)CCN(CC(=O)O)CC2)C(=O)NCCOCCOCCOCCOCCC(=O)N[C@@H](CCC(=O)NCCCC[C@@H]2NC(=O)[C@@H](Cc3ccccc3)NC(=O)[C@H](CC(=O)O)NC(=O)CNC(=O)[C@H](CCCNC(=N)N)NC2=O)C(=O)NCCCC[C@@H]2NC(=O)[C@@H](Cc3ccccc3)NC(=O)[C@H](CC(=O)O)NC(=O)CNC(=O)[C@H](CCCNC(=N)N)NC2=O)C(=O)NCCCC[C@@H]2NC(=O)[C@@H](Cc3ccccc3)NC(=O)[C@H](CC(=O)O)NC(=O)CNC(=O)[C@H](CCCNC(=N)N)NC2=O)NC(=O)[C@@H](Cc2ccccc2)NC(=O)[C@H](CC(=O)O)NC(=O)CNC1=O [indium-111 labelled]		female athymic nude mice, heart	intravenous, 3 µCi, 4 h, U-87 MG glioma xenograft		tissue uptake	0.68 ± 0.31 %ID/g
CSCC[C@H](NC(=O)[C@H](CC(C)C)NC(=O)[C@H](Cc1c[nH]cn1)NC(=O)CNC(=O)[C@@H](NC(=O)[C@H](C)NC(=O)[C@H](Cc1c[nH]c2ccccc12)NC(=O)[C@H](CCC(N)=O)NC(=O)[C@H](CC(N)=O)NC(=O)CNC(=O)[C@H](Cc1ccc(O)cc1)NC(=O)[C@H](CCCNC(=N)N)NC(=O)[C@H](CCC(N)=O)NC(=O)[C@@H]1CCCN1C(=O)CN1CCN(CC(=O)O)CCN(CC(=O)O)CCN(CC(=O)O)CC1)C(C)C)C(N)=O [indium-111 labelled]	radio-HPLC	Swiss nu/nu mice, blood	intravenous, 1 nmol, 15 min		intact peptide	4.3% and 2.4%
CSCC[C@H](NC(=O)[C@H](CC(C)C)NC(=O)[C@H](Cc1c[nH]cn1)NC(=O)CNC(=O)[C@@H](NC(=O)[C@H](C)NC(=O)[C@H](Cc1c[nH]c2ccccc12)NC(=O)[C@H](CCC(N)=O)NC(=O)CCCCCNC(=O)CNC(=O)CNC(=O)CNC(=O)CSC(C)=O)C(C)C)C(N)=O [technetium-99m labelled]		healthy Swiss mouse, stomach, contents removed	intravenous, 18.5 MBq, 90 min		tissue uptake	0.83 ± 0.32 %ID/g
N=C(N)NCCC[C@@H]1NC(=O)[C@H](CCCCNC(=O)CCOCCOCCOCCOCCNC(=O)CN2CCN(CC(=O)O)CCN(CC(=O)O)CCN(CC(=O)O)CC2)NC(=O)[C@@H](Cc2ccccc2)NC(=O)[C@H](CC(=O)O)NC(=O)CNC1=O [indium-111 labelled]		female athymic nude mice, intestine	intravenous, 3 µCi, 1 h, U-87 MG glioma xenograft		tissue uptake	1.24 ± 0.09 %ID/g
CC(C)C[C@H](NC(=O)[C@@H]1CCCN1C(=O)[C@H](CCCCN)NC(=O)[C@@H](N)CO)C(=O)N1CCC[C@H]1C(=O)N[C@@H](CCC(=O)O)C(=O)N[C@H](C(=O)N[C@H](C(=O)N[C@@H](CC(=O)O)C(=O)N[C@@H](CCC(=O)O)C(=O)N[C@@H](Cc1ccc(O)cc1)C(=O)N[C@@H](Cc1cn(CCOCCOCCOCCNC(=O)CCc2ccc(O)c(CN(CCN(CC(=O)O)Cc3cc(CCC(=O)NCCCC[C@H](NC(=O)N[C@@H](CCC(=O)O)C(=O)O)C(=O)O)ccc3O)CC(=O)O)c2)nn1)C(=O)O)[C@@H](C)O)C(C)C [gallium-68 labelled]		NMRI nu/nu mouse, LNCaP xenograft, femur	10 MBq, high molar activity		SUV	0.06 g/g
COc1cc(OC)cc(C2=C3c4ccccc4C(c4ccc(NC(=S)NCCOCCOCCOCCC(=O)N[C@@H](CC(C)C)C(=O)N[C@@H](C)C(=O)N[C@@H](CCCNC(=N)N)C(=O)N[C@@H](CC(C)C)C(=O)N[C@@H](CC(C)C)C(=O)N[C@H](C(N)=O)[C@@H](C)O)cc4)=[N+]3[B-](F)(F)n3c2c2ccccc2c3-c2ccc(NC(=S)NCCNC(=O)CCCC[C@@H]3SC[C@@H]4NC(=O)N[C@@H]43)cc2)c1		DMSO			emission maximum	689 nm
CCCC[C@H](NC(=O)CNC(=O)[C@H](CO)NC(=O)CNC(=O)c1ccc(NN)nc1)C(=O)N[C@H]1CC(=O)NCCCC[C@@H](C(N)=O)NC(=O)[C@H](Cc2c[nH]c3ccccc23)NC(=O)[C@H](CCCNC(=N)N)NC(=O)[C@@H](Cc2ccccc2)NC(=O)[C@H](Cc2c[nH]cn2)NC1=O [technetium-99m labelled]		C57 mouse, B16/F1 melanoma	2 h	reference: tumour over kidney	uptake ratio	1.9
N=C(N)NCCC[C@@H]1NC(=O)[C@H](CCCCNC(=O)CC[C@H](NC(=O)CCOCCOCCOCCOCCNC(=O)CN2CCN(CC(=O)O)CCN(CC(=O)O)CCN(CC(=O)O)CC2)C(=O)NCCCC[C@@H]2NC(=O)[C@@H](Cc3ccccc3)NC(=O)[C@H](CC(=O)O)NC(=O)CNC(=O)[C@H](CCCNC(=N)N)NC2=O)NC(=O)[C@@H](Cc2ccccc2)NC(=O)[C@H](CC(=O)O)NC(=O)CNC1=O [indium-111 labelled]		female athymic nude mice, muscle	intravenous, 3 µCi, 4 h, U-87 MG glioma xenograft		tissue uptake	0.7 ± 0.41 %ID/g
CC(=O)N[C@@H](CCCCN)C(=O)N[C@@H](CS)C(=O)N[C@@H](CS)C(=O)N[C@@H](Cc1ccc(O)cc1)C(=O)N[C@@H](CO)C(=O)N[C@@H](CC(C)C)C(=O)NCC(=O)NCC(=O)NCC(=O)N[C@@H](CO)C(=O)N[C@@H](CO)C(=O)N[C@@H](CCCCN)C(=O)N[C@@H](Cc1ccc(O)cc1)C(=O)N[C@@H](CCC(N)=O)C(=O)N[C@@H](CO)C(=O)N[C@@H](CC(C)C)C(=O)OCCN(c1ccccc1)C(C)c1cc(C)cn2c(=O)cc(N3CCOCC3)nc12 (some centres unmarked)		PBS	5 µM, 4 h, pH 7.5, 37 °C		degradation	7%
N=C(N)NCCC[C@@H]1NC(=O)[C@H](CCCCNC(=O)CCOCCOCCOCCOCCNC(=O)CC[C@H](NC(=O)[C@H](CCCCNC(=O)c2ccc(NN)nc2)NC(=O)c2ccc(NN)nc2)C(=O)NCCOCCOCCOCCOCCC(=O)NCCCC[C@@H]2NC(=O)[C@@H](Cc3ccccc3)NC(=O)[C@H](CC(=O)O)NC(=O)CNC(=O)[C@H](CCCNC(=N)N)NC2=O)NC(=O)[C@@H](Cc2ccccc2)NC(=O)[C@H](CC(=O)O)NC(=O)CNC1=O [technetium-99m labelled]		female athymic nude mice	intravenous, 1 h, U-87 MG glioma xenograft	reference: tumour over blood	tissue ratio	9.87 ± 1.65
N=C(N)NCCC[C@@H]1NC(=O)[C@H](CCCCn2cc(CNC(=O)CN3CCN(CC(=O)O)CCN(CC(=O)O)CCN(CC(=O)O)CC3)nn2)NC(=O)[C@@H](Cc2ccccc2)NC(=O)[C@H](CC(=O)O)NC(=O)CNC1=O		octanol/ammonium acetate buffer	pH 6.8, 64Cu-labelled		logD	-3.3

For quick reference, copied from above:
SMILES	assay	test system	setting	scale	endpoint	value
CCCC[C@H](NC(=O)CCCCCCCNC(=O)c1ccc(NN)nc1)C(=O)N[C@H]1CC(=O)NCCCC[C@@H](C(N)=O)NC(=O)[C@H](Cc2c[nH]c3ccccc23)NC(=O)[C@H](CCCNC(=N)N)NC(=O)[C@@H](Cc2ccccc2)NC(=O)[C@H](Cc2c[nH]cn2)NC1=O [technetium-99m labelled]		C57 mouse, B16/F1 melanoma, stomach	intravenous, 0.5 h		uptake	2.52 ± 0.22 %ID/g
